Experimental data gathered from unrelated publications.
Numbered parts are unrelated; each lists some results of a single study. pIC50: −log10 of the molar value.
UniProt Q5XXA6, sequence (whole entry, unmodified, looked up): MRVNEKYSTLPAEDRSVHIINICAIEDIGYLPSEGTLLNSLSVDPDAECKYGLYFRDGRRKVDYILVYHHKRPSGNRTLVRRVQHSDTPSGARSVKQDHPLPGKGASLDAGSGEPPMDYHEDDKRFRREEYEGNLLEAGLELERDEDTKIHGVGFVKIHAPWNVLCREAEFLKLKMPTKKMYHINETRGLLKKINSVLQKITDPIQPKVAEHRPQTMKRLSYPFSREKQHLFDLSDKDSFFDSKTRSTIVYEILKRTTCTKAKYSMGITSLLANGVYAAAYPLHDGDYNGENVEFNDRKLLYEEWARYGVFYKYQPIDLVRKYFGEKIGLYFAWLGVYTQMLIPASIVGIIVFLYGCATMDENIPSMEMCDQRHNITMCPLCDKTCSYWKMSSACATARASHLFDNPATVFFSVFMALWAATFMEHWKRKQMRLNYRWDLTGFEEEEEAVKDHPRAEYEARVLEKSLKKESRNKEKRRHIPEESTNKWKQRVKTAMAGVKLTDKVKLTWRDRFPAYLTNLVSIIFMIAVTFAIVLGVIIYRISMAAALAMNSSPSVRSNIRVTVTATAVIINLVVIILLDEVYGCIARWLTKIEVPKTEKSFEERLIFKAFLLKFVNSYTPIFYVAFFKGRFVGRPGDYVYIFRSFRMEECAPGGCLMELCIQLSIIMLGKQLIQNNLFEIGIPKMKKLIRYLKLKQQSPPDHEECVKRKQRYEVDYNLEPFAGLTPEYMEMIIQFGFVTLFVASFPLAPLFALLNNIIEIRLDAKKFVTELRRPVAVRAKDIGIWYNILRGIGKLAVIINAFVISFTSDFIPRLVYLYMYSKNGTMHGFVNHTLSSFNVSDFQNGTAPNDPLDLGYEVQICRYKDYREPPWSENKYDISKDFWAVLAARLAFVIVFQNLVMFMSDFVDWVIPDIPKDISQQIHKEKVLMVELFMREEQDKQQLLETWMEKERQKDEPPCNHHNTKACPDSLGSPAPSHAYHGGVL
UniProt P49841, sequence (whole entry, looked up): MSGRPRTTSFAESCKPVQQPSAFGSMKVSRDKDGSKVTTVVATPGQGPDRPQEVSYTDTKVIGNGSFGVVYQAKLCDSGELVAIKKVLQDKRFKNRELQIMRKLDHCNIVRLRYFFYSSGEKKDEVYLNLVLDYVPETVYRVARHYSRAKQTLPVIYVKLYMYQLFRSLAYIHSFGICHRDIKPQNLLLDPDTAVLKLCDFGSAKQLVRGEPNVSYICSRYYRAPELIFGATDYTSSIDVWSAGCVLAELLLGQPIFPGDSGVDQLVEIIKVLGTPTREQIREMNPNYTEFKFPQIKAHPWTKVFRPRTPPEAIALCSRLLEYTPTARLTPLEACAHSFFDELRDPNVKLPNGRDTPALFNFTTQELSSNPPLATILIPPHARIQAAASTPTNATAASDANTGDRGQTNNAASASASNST
UniProt Q6ZN16, sequence (whole entry, looked up): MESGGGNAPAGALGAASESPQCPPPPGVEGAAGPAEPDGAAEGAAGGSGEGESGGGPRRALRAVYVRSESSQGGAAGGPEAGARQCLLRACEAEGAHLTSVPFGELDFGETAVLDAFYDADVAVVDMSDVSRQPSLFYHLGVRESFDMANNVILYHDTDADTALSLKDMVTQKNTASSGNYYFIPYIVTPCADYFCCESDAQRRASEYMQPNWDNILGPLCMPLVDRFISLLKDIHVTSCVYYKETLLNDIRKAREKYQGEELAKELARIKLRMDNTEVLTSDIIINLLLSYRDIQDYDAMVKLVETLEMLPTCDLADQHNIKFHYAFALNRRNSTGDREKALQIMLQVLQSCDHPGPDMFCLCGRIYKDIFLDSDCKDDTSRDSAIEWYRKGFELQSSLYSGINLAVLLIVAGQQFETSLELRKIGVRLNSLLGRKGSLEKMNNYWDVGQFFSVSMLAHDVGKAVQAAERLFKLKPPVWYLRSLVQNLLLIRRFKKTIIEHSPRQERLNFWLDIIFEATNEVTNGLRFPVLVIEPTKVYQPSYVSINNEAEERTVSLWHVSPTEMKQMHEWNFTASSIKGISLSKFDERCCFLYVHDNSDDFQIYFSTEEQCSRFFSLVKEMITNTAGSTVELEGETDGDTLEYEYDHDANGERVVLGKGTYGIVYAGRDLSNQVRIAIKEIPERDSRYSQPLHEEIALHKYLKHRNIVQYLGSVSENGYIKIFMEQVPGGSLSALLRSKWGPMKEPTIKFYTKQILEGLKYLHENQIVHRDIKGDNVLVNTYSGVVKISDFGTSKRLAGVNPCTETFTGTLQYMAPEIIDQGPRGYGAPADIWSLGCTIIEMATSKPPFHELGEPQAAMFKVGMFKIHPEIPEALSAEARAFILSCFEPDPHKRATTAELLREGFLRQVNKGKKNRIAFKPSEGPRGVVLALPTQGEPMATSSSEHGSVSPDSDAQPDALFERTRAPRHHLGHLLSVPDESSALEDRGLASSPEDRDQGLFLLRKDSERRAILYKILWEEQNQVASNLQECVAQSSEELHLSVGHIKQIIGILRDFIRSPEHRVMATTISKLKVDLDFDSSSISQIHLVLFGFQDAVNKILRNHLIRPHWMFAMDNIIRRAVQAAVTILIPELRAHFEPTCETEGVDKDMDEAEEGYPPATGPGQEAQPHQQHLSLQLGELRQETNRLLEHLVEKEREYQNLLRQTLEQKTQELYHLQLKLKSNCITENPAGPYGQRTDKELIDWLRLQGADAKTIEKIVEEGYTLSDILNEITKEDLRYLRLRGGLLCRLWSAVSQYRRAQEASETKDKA
UniProt Q9NYY3, sequence (whole entry, looked up): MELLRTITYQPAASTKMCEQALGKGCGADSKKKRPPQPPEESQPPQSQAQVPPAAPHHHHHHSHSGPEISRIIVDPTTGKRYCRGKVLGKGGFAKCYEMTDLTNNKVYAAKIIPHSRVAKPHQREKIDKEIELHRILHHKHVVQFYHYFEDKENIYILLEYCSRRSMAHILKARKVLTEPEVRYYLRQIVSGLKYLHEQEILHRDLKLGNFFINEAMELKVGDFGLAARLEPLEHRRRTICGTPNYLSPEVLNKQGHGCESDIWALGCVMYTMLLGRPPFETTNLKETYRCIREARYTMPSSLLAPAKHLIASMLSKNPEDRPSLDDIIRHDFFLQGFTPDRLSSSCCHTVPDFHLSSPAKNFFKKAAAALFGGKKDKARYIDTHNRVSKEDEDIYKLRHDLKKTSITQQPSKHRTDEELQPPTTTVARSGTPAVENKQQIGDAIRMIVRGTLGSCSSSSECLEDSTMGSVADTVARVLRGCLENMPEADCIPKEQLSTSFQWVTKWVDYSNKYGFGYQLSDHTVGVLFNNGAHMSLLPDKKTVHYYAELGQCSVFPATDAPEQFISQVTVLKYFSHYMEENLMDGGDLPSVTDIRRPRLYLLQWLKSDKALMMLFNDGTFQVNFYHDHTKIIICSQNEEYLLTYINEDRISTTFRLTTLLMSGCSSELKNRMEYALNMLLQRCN
UniProt P19784, sequence (whole entry, looked up): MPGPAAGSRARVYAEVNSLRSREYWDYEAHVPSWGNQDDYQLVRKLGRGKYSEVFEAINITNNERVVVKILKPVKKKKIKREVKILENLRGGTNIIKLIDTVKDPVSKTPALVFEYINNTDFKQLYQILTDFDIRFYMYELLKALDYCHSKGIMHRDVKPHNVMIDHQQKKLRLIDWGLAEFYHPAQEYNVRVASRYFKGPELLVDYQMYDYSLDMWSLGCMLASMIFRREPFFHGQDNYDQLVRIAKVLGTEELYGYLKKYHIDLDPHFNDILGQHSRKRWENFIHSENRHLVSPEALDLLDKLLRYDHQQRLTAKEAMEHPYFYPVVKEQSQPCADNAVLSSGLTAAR
UniProt O94804, sequence (whole entry, looked up): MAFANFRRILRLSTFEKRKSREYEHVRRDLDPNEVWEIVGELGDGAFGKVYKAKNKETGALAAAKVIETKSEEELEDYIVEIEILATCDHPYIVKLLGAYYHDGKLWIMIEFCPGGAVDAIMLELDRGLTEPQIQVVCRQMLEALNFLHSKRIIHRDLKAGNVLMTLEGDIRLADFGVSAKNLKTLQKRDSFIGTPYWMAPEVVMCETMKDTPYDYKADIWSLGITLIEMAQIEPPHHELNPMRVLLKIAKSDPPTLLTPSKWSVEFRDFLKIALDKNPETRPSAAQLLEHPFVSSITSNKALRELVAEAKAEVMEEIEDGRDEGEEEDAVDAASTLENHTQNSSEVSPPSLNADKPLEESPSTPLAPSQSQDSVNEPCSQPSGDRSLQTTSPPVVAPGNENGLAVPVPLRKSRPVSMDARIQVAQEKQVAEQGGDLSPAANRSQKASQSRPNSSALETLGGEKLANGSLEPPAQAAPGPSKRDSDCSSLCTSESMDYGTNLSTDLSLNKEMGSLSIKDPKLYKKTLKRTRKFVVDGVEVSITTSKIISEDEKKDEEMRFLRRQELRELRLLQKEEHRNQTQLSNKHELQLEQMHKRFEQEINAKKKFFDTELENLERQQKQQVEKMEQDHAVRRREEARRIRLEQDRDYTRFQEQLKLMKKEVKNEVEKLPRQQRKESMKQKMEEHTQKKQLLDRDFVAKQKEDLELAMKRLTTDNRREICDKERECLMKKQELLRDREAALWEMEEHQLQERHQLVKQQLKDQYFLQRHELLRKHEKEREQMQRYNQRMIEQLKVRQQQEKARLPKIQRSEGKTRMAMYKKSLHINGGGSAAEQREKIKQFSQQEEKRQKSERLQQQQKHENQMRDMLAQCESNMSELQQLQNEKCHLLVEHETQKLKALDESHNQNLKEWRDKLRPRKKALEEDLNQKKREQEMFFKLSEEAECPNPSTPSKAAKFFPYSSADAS

Study 1
Species: mouse
Sample: microsomes or S9
Tested at: 2 µM
Time: 0.5 h
Compound | remaining compound [%]
O=C(NCC1Cc2ccccc2CO1)c1cnn2c1OCCC2 (stereo not drawn) | 6.18
CCN(CC)S(=O)(=O)c1ccc(S(=O)(=O)NC(C)c2nncn2C)cc1 (stereo not drawn) | 61.4
C[C@@H]1[C@@H](CO)[C@](O)(C(F)(F)F)c2cc([N+](=O)[O-])cn21 | 95.6
NCC1Cc2cc(F)cc(-c3ccnc4c(C(F)(F)F)cccc34)c2O1 (stereo not drawn) | 97.4

Study 2
SMILES: Cc1nc(N2CC[C@@H](O)C2)ncc1-c1cc(C(F)(F)F)cc2[nH]ncc12
Method: competition with immobilised ligand
Tested at: 1 µM
target | assay | remaining binding [%]
CDK14 (Homo sapiens, UniProt O94921) | binding | 100
EGFR (Homo sapiens, UniProt P00533, del746-750) | cell-free assay | 90
SBK1 (Homo sapiens, UniProt Q52WX2) | binding | 82
PLK2 (Homo sapiens, UniProt Q9NYY3) | binding | 76
CSNK2A2 (Homo sapiens, UniProt P19784) | cell-free assay | 91
MAP3K7 (Homo sapiens, UniProt O43318) | binding | 89
VRK2 (Homo sapiens, UniProt Q86Y07) | binding | 86
GSK3B (Homo sapiens, UniProt P49841) | cell-free assay | 65
EPHA8 (Homo sapiens, UniProt P29322) | cell-free assay | 61
ANKK1 (Homo sapiens, UniProt Q8NFD2) | binding | 85
CDK13 (Homo sapiens, UniProt Q14004) | binding | 90
STK10 (Homo sapiens, UniProt O94804) | binding | 100
MAP3K15 (Homo sapiens, UniProt Q6ZN16) | binding | 100
PIK3CA (Homo sapiens, UniProt P42336, E542K) | cell-free assay | 52

Study 3
Target: Histone acetyltransferase KAT6A, winged helix 1, GST fusion (KAT6A, Homo sapiens, UniProt Q92794, residues 1-85)
Method: protein binding microarray
Molecule type: double-stranded DNA, one strand shown
Sample: in vitro
Tested at: not given
Notes: 8-mer, flanks averaged, mean of 2 arrays, mostly near background
Relative to: not given
Reading: higher = stronger binding
Target sequence (chain): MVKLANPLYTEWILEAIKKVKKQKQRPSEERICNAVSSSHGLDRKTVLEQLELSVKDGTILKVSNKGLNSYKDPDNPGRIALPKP
Strand | E-score
CCGGGCCC | 0.304
AGAACGGG | 0.23
ACTCAAGA | -0.21
GCTGGACC | -0.127
CGGCGGAG | 0.433
TGGACAAA | -0.177
ATAGAAGG | 0.0469
ATCCTGGA | -0.211

Study 4
Compound: C=CCc1ccc(O)c(-c2ccc(O)c(CC=C)c2)c1
Read-out: chloride current
Mode: inhibitor
Method: whole-cell voltage clamp
target | conditions | pIC50
Anoctamin-1 (ANO1, Homo sapiens, UniProt Q5XXA6, del476-501/F803Y) | 40 mV holding voltage | 4.97
Anoctamin-1 (ANO1, Homo sapiens, UniProt Q5XXA6, del476-501) | wild type, with: 300 nM Ca2+ | 5.20
Anoctamin-1 (ANO1, Homo sapiens, UniProt Q5XXA6, del476-501/F628Y) | 80 mV holding voltage | 4.63
Anoctamin-1 (ANO1, Homo sapiens, UniProt Q5XXA6, del476-501/F628I) | F602I mutant at -100 mV | 4.65

Excerpt of the above (study 2):
target | assay | remaining binding [%]
GSK3B (Homo sapiens, UniProt P49841) | cell-free assay | 65
EPHA8 (Homo sapiens, UniProt P29322) | cell-free assay | 61
MAP3K15 (Homo sapiens, UniProt Q6ZN16) | binding | 100
